Measured values gathered from unrelated publications.
A part holds a random share of what one study measured.

Set 1
Target: PABPC1L2, full length, GST fusion (mouse, UniProt A0ABA7IW68)
Method: RNAcompete
Form: RNA
Medium: in vitro
Concentration: 20 nM
Notes: 7-mer, probes averaged, single round
Relative to: mean of 7-mers
Direction: higher = stronger binding
Quantity: 7-mer Z-score
Residues (chain): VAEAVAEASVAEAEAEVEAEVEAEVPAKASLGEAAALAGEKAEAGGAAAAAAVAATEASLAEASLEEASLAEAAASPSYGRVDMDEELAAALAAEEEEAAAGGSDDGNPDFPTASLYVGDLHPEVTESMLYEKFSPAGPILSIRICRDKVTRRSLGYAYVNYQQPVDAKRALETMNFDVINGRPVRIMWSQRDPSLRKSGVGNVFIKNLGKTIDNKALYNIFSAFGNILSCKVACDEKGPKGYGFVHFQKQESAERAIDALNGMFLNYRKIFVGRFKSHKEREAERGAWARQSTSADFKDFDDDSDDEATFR
ACCCCAG: -0.202
CUGAGAC: -0.119
UACGCAA: -0.0337
ACGAUUA: -0.122
CGUAGCU: -0.38
GCCGGAC: 0.0297
AAAUAAU: 2.3
GCCAUGC: -0.0971
AGCGACC: 0.321
AGUUGCC: -0.0482
CUCUGUA: -0.193
AGCUUCU: -0.429
ACCGGGC: 0.209
UGCUAGC: -0.26
AUCCUUC: -0.351
GAUGUAG: -0.155
AUAGACC: -0.0573
CAACUGU: -0.311
GUGAAAG: 0.162
UCUCGUA: -0.217
UCAUGGA: -0.0391
UUGUUCG: -0.436
UAACUGU: -0.286
UCCAGGC: -0.126
UCUAAUU: -0.4

Set 2
Target: Interferon regulatory factor 5, full length, phosphomimetic (IRF5, Homo sapiens, UniProt Q13568-2, residues 1-514, K96S/S451D/S453D/S456D/S462D)
Method: protein-binding microarray
Form: double-stranded DNA, one strand shown
Medium: in vitro
Concentration: 250 nM
Notes: 60-bp whole probe
With: salmon DNA 0.4 mg/ml
Relative to: random background probes
Direction: higher = stronger binding
Quantity: log fluorescence
Constant ends, left off below: GCCTAGCAC … GTCTTGATTCGCTTGACGCTGCTG
GAAGAAATTTAATAGTCACTGTGCTAG: 0.502 z-score
TTAGATTTCAGTATCTATTAGTGCTAG: 3.23 z-score
TCATCTCTACATGTGTTACTGTGCTAG: 0.207 z-score
TTAGGTATACTACTGCTTTAGTGCTAG: -0.176 z-score
GACGGTTCCGACTATCGGGACGTGCTA: 1.57 z-score
TTTGGTATCCTTCTCCTTTAGTGCTAG: 0.604 z-score
TCATTTTTCACTATTGCACTGTGCTAG: 2.45 z-score
CTAGGACTGGGGTATCGGTTAGTGCTA: 1.84 z-score
TCATTTTTTTTTTGGAAACTGTGCTAG: 0.935 z-score
GACGGACTGGGGTTTCGGGCCGTGCTA: 0.711 z-score
CTCCCTTTCAGTTTTCCTCTGTGCTAG: 3.16 z-score
TTCGGTTTCGGGTTTCGGTTAGTGCTA: 9.85 z-score
GACGGTTACGGGTTTCGGGACGTGCTA: 1.99 z-score
CAACATCTGCAAGATCCACAAGTGCTA: 0.0281 z-score
CCTTGTCCCCTCAGGTATGGGTGCTAG: -0.303 z-score
TTAGGACTGGGTATTGGTTAGTGCTAG: -0.199 z-score
TCATGTTTGATAATTTTACTGTGCTAG: 0.651 z-score
TCATACTTCTCTTTTGGACTGTGCTAG: 0.722 z-score
TCAGCTTGGTGTCTCTGACTGTGCTAG: -0.465 z-score
TCAGTTTTAGGTCCCTTACTGTGCTAG: 0.1 z-score
TTAGGTATCGGCCTCGGTTAGTGCTAG: 2.66 z-score
GAATGTCTTCCCCTCTCATTGTGCTAG: 0.249 z-score
GACGGACTGCTTCTCCTAACGTGCTAG: -0.75 z-score
GACGGTCTCGGTTTCGAGACGTGCTAG: 2.97 z-score
ATGGGTATGGCCTATTTATATGTGCTA: -0.403 z-score

Set 3
Target: RNA binding protein fox-1 homolog 2, RRM domain, GST-SBP tag (RBFOX2, Homo sapiens, UniProt O43251-10, residues 100-194)
Method: RNA Bind-n-Seq
Form: RNA
Medium: in vitro
Concentration: 365 nM
Notes: natural RNA segment, single round, ends assumed
Relative to: no-protein control
Direction: higher = stronger binding
Quantity: RBNS enrichment (R)
Constant ends, left off below: GGGAGUUCUACAGUCCGACGAUC … UGGAAUUCUCGGGUGCCAA
Residues (chain): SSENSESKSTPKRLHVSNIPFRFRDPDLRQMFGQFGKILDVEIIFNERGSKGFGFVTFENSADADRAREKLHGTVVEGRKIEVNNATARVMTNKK
GGGAUGCCGUUUGAAAACAGGCACUCUUCCCCUGAGGAUGGGAAAGGAGCUCUUCAGUUGGAGAUCUAGGCAGUGGGUUAAGCCAGACCCCUAAAGUGACCCUUUCCUCU: 0.543
UGGUUUGAAGAUCUGCGGGGAAAAAUAAGUGUGCACCUGAGACCUUCAGUUAGUCUUUUAUUUAUUUAGAAUAAAAAAUAGUUUGAUAACCUACCAGAGUUAGUGCUUCU: 1.9
GCAGUUCCUGCAGAGACAGUGCUGGCUGAGUCUCCGCCUUGCUGGGGCUUGUCCUAGAGGCUCCAGCUCUGGCACAGUGGUUCCUGGCUGCUGCCAUGUCUCAGAUGAGG: 0.354
UUUAAAUGAAGAGGGGAAUAAACAAGUUGACAGACUCAGGAAUGUAAACAGACAAGGAAGAUAUCCUCUGUACCAGUGAUGUCCUGCCCCCAGUGCAUUUCUUCACAGUG: 0.584
ACUAACUAGGGCUCCAGUCAGUAUUCCCCUGGCCGGCUUCCCAGAUGCCCUGGACGGCACUCUGUUCCUUAAAGUCCAGUUCCACCCUGACGUCCACAGAGGCAGCACGG: 0.34
CCUUCAAGAAAUGGACCCCUCCUCGGUCACCUUUUAAUCUUGUUCAAGAAAUACUUUUCCAUGACCCAUGGAAGCUCCUCAUCGCGACUAUAUUUCUCAAUCGGACCUCA: 0.341
AGUUCACGGGUCAGCAGUGGCAGCUCGACCCACUCGCAAACACUUCACGGAUACACCAGCAGUGUUGGGAUAGGAGCAGCCAGGCCUCAGCAGGAGGGACCAGGGCCGAC: 0.472
AAAGGCCUGGAUAUGGUUUCUAAAAUCUCAGCUGAGAACUUCAGAAAACAGCAGCAGUAUUUUCCUUUUCCUAGUGCUAAAAUCCCUUUCCCUAGAAAUUGGCUCACCUU: 0.647
UUUAAAUAAUUAUUACAUUAUUCUAACUAUAGUCAUAUUAUUUUGGAUUUAAAUAAAUUUCUAUCCUAUAACAUUUUUUUGGAGCUUUUUGUUUUGUCUCUUAAGGUUGU: 0.565
CACUGUGCGUGCAGACACACUGACACACUCCGCCACGAGUGCUCCAGAGCCCACGAGGCUUGCAGAUCGGGGGCAUAGGAAUUUGGAAUCCAAGAGCUAUAAUUUUUAAA: 1.46
UAAGAGCGAAAACAAGGUCAUAUGUAAUAUUUUGUUUGUAAGUAUCCUUUGUAUCAUAGCAAAGGAAAUGUUUAAAAAAAUCAACUGUAAUAAAGUAAUUUUAGUACACA: 0.539
UCUGCACUUUGCCCCCUGUCUCAAAAAUGUCCCUCAUGUCCAUUUCCUGUCCAGGAGACUCAUGAGGACUGUGUGACCUGCACAAGCCCACACCUGGGCAGGCUGUUGGU: 0.256

Set 4
Target: Ras GTPase-activating protein-binding protein 1, full length (G3BP1, Homo sapiens, UniProt Q13283)
Chain of UniProt Q13283 (whole entry, looked up): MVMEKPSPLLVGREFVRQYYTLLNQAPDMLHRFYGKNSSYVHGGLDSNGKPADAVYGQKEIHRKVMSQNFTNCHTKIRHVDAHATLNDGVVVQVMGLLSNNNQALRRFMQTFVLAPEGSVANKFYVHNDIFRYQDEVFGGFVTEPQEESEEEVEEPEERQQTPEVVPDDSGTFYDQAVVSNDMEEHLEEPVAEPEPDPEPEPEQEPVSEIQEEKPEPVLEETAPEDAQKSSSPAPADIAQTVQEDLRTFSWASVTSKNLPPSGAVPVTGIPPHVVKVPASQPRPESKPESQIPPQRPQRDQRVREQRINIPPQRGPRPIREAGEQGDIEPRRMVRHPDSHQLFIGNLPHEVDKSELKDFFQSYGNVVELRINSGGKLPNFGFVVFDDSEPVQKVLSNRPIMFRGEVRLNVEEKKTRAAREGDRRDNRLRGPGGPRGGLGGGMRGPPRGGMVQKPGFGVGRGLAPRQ
Method: RNA Bind-n-Seq
Form: RNA
Medium: in vitro
Concentration: 200 nM
Notes: whole 134-nt RNA, ends assumed
With: 150 mM KCl
Relative to: input library
Direction: higher = stronger binding
Quantity: log2 enrichment
Constant ends, left off below: GGGAGUUCUACAGUCCGACGAUC … UGGAAUUCUCGGGUGUCAAGG
UGGGAGGUGGAUUUUGUUUAUUUUUUUAGCCCAUUUCCAGGGGUGGGAAUUUUUUUUUAAUAUGUGUCAUGAAUAAAGUUGUUUUUGAAA: 0.0639
GCAGGAAGUAAAAACAAAUGGAAAUGCUUCGGAUAGUGGCAGGGGUGGGGGUUGCUAAGGAAAGGGUGGAAAGGGAGUGGGUAAAGAGUU: 0.798
CUCAAGUCCUGUGCUACACAUCGUAUGUACCGAAUCGGAAAAAGGAGGAAAGGAAAGUAUUAUGUUACGCCGUUCGGAUCUGCACUUCCA: -0.465
AAGUCCUGUGCUACACAUCGUAUGUACCGAAUCGGGAAAGGGUUUUUGGGAAAGGGAAAGUAUUAUGUUACGCCGUUCGGAUCUGCACUU: 0.0255
CUCAAGUCCUGUGCUACACAUCGUAUGUACCGAAUCGGGAGGGAGGGUUUGGGAAAGUAUUAUGUUACGCCGUUCGGAUCUGCACUUCCA: 1.27
CAAGUCCUGUGCUACACAUCGUAUGUACCGAAUCGGAAAAGGGAAAAGGAAAAGGAAAGUAUUAUGUUACGCCGUUCGGAUCUGCACUUC: -0.974
GUCCUGUGCUACACAUCGUAUGUACCGAAUCAAAUUUUUUUAAAUUUAAACCCCCAAAAAAGUAUUAUGUUACGCCGUUCGGAUCUGCAC: -0.114
ACCAUGCAGGUGGCCAUCUUUGGGAAGUGGGGCAAGGGGGGGAUAGGGAGGGGGGUAACACUUUGGGAACAGGUGGUCCCAGGUCGUUUC: 1.46
CUCAAGUCCUGUGCUACACAUCGUAUGUACCGAAUCGGCGGGGCGGGGCGGGGAAAGUAUUAUGUUACGCCGUUCGGAUCUGCACUUCCA: 1.05
CUGUGCUACACAUCGUAUGUACCGAAUCGGCCCCCCCGGGCCCCCCCGGGGCCCCCCCGGGAAAGUAUUAUGUUACGCCGUUCGGAUCUG: -0.869
CCUGUGCUACACAUCGUAUGUACCGAAUCGGUUUUUUUGGUUUUUUUGGUUUUUUUGGGGAAAGUAUUAUGUUACGCCGUUCGGAUCUGC: -1.2
CCUCAAGUCCUGUGCUACACAUCGUAUGUACCGAAUCGGGCGGGGCGGCGGGAAAGUAUUAUGUUACGCCGUUCGGAUCUGCACUUCCAG: 0.49
UCCUGUGCUACACAUCGUAUGUACCGAAUCGGGGAAAAAGGGGUUUUUUUGGGGUGGGGAAAGUAUUAUGUUACGCCGUUCGGAUCUGCA: 0.838
UAACUUUAGAGGAGGGUCUGAUGGAUAUGGCAGUGGACGUGGAUUUGGGGAUGGCUAUAAUGGGUAUGGAGGAGGACCUGGAGGUGGCAA: 0.397

Excerpt of the above (set 1):
CGUAGCU: -0.38
CUCUGUA: -0.193
UCCAGGC: -0.126
CAACUGU: -0.311
UUGUUCG: -0.436
